# Assay results pooled from the literature.
# Every numbered part comes from another study and shows a few of its results, in no order. Several values in a cell are separate wells, animals, samples, runs or records.
# Sequence of UniProt P42336 (whole entry, unmodified, looked up): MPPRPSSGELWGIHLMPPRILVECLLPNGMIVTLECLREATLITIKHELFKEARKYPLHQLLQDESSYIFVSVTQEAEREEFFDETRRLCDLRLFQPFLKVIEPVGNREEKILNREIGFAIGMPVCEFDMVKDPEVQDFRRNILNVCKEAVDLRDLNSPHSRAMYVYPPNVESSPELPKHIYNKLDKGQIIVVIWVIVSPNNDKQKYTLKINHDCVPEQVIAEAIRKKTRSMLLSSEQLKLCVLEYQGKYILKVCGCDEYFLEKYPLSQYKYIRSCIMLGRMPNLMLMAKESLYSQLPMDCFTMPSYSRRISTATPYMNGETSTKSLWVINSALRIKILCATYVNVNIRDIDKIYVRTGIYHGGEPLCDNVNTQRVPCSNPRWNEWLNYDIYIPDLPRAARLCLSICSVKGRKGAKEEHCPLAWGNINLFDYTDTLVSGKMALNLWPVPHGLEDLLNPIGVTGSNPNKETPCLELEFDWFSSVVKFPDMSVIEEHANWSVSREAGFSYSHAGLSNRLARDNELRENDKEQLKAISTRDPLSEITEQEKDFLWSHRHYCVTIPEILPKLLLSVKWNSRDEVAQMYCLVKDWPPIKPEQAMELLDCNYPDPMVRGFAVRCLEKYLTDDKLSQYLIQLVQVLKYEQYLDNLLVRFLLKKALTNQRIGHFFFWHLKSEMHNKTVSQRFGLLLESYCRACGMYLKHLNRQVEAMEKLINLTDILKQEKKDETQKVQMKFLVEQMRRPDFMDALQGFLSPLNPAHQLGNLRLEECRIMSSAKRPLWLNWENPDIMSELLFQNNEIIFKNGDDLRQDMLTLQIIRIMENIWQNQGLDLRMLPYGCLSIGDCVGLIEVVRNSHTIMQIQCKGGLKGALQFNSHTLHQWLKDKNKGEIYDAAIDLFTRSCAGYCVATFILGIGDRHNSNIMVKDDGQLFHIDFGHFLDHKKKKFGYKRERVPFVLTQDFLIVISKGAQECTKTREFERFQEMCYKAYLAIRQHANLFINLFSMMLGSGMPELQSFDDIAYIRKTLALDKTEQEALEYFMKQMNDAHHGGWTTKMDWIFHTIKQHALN

# Sample 1
# Target: Receptor tyrosine-protein kinase erbB-4 (ERBB4, Homo sapiens, UniProt Q15303)
# Sequence of UniProt Q15303 (whole entry, looked up): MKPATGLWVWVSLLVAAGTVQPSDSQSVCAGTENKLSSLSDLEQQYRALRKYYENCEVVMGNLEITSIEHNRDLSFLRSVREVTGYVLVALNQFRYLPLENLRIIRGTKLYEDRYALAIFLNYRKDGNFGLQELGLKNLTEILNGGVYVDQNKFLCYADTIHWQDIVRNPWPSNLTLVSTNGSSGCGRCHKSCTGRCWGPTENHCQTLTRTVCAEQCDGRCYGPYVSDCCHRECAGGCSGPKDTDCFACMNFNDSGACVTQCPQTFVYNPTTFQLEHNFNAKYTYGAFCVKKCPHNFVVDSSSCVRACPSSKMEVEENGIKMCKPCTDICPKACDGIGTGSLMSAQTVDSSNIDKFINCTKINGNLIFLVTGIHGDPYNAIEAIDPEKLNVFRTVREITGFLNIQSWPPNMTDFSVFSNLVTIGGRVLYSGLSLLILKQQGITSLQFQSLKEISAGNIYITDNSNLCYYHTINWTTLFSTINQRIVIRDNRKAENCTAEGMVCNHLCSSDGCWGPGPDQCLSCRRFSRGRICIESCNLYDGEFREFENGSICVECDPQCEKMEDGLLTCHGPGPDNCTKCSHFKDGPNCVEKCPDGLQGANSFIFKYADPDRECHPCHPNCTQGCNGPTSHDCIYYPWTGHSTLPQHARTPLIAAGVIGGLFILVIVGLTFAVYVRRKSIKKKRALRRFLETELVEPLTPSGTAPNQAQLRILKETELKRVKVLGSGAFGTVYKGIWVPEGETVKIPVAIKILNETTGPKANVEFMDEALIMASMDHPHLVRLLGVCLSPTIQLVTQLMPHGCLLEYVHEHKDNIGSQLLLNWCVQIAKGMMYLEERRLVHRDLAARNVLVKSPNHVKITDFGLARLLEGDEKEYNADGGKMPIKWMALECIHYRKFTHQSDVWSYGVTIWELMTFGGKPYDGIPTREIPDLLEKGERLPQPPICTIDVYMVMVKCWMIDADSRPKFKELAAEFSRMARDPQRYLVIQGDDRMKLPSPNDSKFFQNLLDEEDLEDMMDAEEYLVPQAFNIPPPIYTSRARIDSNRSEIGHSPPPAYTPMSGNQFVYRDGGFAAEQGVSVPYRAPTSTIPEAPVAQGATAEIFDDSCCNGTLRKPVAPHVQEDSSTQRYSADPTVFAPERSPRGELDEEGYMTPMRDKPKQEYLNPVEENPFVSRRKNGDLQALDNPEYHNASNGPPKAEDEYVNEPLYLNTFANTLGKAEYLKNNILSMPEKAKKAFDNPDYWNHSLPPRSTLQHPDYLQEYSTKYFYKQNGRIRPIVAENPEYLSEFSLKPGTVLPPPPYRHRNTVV
# Effect on: enzyme activity
# Mode: inhibitor
# Concentration: 0.5 µM
# Reference: control
SMILES,remaining activity [%]
NC(=O)c1cccc(-c2cc(Nc3ccc(OC(F)(F)F)cc3)ncn2)c1,85.3
CNc1cc2c(Nc3cccc(Br)c3)ncnc2cn1,58.6
NC(=O)c1ccc(-c2nc(-c3ccc4c(c3)OCCO4)c(-c3ccccn3)[nH]2)cc1,104
CC(C)(C)c1nc2c3cc[nH]c(=O)c3c3cc(F)ccc3c2[nH]1,99.9
Nc1nc(Nc2ccc(S(N)(=O)=O)cc2)nn1C(=S)Nc1c(F)cccc1F,98
FC(F)(F)c1ccc(/C=C/c2nc(COc3ccc(CCCCn4ccnn4)cc3)co2)cc1,99.6
CC(C)N(CCC(=O)c1ccc2ccccc2c1)Cc1ccccc1,91.7
C[C@@H](N)[C@H]1CC[C@H](C(=O)Nc2ccncc2)CC1,93.5
CCN(CC)CCCCN1c2ccccc2Oc2ccc(Cl)cc21,102
COc1cc2c(Nc3ccc(Br)cc3F)ncnc2cc1OCC1CCN(C)CC1,45.6
CC(C)n1cnc2c(Nc3cccc(Cl)c3)nc(NCCO)nc21,101
O=C1NC(=O)/C(=C/c2ccc3c(c2)OC(F)(F)O3)S1,99.5
Clc1ccc(Nc2nnc(Cc3ccncc3)c3ccccc23)cc1,104
N#C/C(=C(/N)SC1C=CC=CC1)c1cccc(C(O)c2ccncc2)c1 (centres unmarked),98
O=c1c(-c2ccc(F)cc2)c(-c2ccncc2)[nH]n1-c1ccc(Cl)cc1,73.2
c1cc(-c2cnn3cc(-c4ccc(OCCN5CCCCC5)cc4)cnc23)ccn1,95.4
O=C(c1ccccc1)c1ccc(N2CCOCC2)cc1O,102
O=C1c2ccccc2-c2nc3nnnn3nc21,50.2
O=C(O)/C=C/c1cc(Br)c(Br)c(Br)c1Br,104
N#CC(c1ccnc(NCCc2cccnc2)n1)c1nc2ccccc2s1 (centres unmarked),83.1
O=Nc1c(-c2c(O)[nH]c3ccccc23)[nH]c2ccccc12,102
CCCCc1c(-c2ccc(O)cc2)[nH]c2nccnc12,102

# Sample 2
# Cell line: HaCaT
# Concentration: 100 µM
# Time: 18 h
Structure (SMILES),viability [%]
O=C(N/N=C/c1ccc([N+](=O)[O-])o1)c1ccc(O)cc1,37.3
C[C@@H](c1ncncc1F)[C@](O)(Cn1cncn1)c1ccc(F)cc1F,114
Cc1cc2nc3c(=O)[nH]c(=O)nc-3n(C[C@H](O)[C@H](O)[C@H](O)CO)c2cc1C,98.2
OC[C@H]1O[C@@H](c2ccc(F)c(Cc3cc4ccccc4s3)c2)[C@H](O)[C@@H](O)[C@@H]1O,99.1
CN1C[C@@H]2c3ccccc3Oc3ccc(Cl)cc3[C@H]2C1 (racemic),26.4
CC(=O)Nc1c(I)c(NC(C)=O)c(I)c(C(=O)O)c1I,117
COC(=O)c1ccccc1O,97
Nc1ccc(S(=O)(=O)Nc2ncccn2)cc1,85.5
C[C@H](CS)C(=O)N1CCC[C@H]1C(=O)O,114
CC1(C)CCC(CN2CCN(c3ccc(C(=O)NS(=O)(=O)c4ccc(NCC5CCOCC5)c([N+](=O)[O-])c4)c(Oc4cnc5[nH]ccc5c4)c3)CC2)=C(c2ccc(Cl)cc2)C1,57.6
CO[C@H]1/C=C/O[C@@]2(C)Oc3c(C)c(O)c4c(c3C2=O)C2=NC3(CCN(CC(C)C)CC3)NC2=C(NC(=O)/C(C)=C\C=C\[C@H](C)[C@H](O)[C@@H](C)[C@@H](O)[C@@H](C)[C@H](OC(C)=O)[C@@H]1C)C4=O,88.3

# Sample 3
# SMILES: Cc1c(NC(=O)c2cc(C(N)=O)nc3cc(F)ccc23)c(C(F)(F)F)nn1Cc1ccc(C#N)cc1
# Technique: competition with immobilised ligand
# Concentration: 1 µM
target,assay,remaining binding [%]
"CSNK1D (Homo sapiens, UniProt P48730)",cell-free assay,76
"MAP3K4 (Homo sapiens, UniProt Q9Y6R4)",cell-free assay,97
"Ribosomal protein S6 kinase alpha-6, C-terminal kinase domain (RPS6KA6, Homo sapiens, UniProt Q9UK32)",cell-free assay,66
"MAP3K15 (Homo sapiens, UniProt Q6ZN16)",cell-free assay,100
"EGFR (Homo sapiens, UniProt P00533, T790M)",cell-free assay,100
"CDKL1 (Homo sapiens, UniProt Q00532)",binding,82
"STK16 (Homo sapiens, UniProt O75716)",cell-free assay,100
"AXL (Homo sapiens, UniProt P30530)",binding,100
"PLK1 (Homo sapiens, UniProt P53350)",cell-free assay,88
"PIK3CA (Homo sapiens, UniProt P42336, E542K)",cell-free assay,84
"Ribosomal protein S6 kinase alpha-4, N-terminal kinase domain (RPS6KA4, Homo sapiens, UniProt O75676)",cell-free assay,100
"MYLK4 (Homo sapiens, UniProt Q86YV6)",cell-free assay,90
"EGFR (Homo sapiens, UniProt P00533, del746-750)",cell-free assay,59
"FGFR1 (Homo sapiens, UniProt P11362)",cell-free assay,100
"HASPIN (Homo sapiens, UniProt Q8TF76)",cell-free assay,67
"ERN1 (Homo sapiens, UniProt O75460)",cell-free assay,78
"MAP2K1 (Homo sapiens, UniProt Q02750)",cell-free assay,90
"Non-receptor tyrosine-protein kinase TYK2, JH1 (TYK2, Homo sapiens, UniProt P29597)",cell-free assay,83
"LIM domain kinase 2 (LIMK2, Homo sapiens, UniProt P53671)",cell-free assay,95
"MARK4 (Homo sapiens, UniProt Q96L34)",cell-free assay,100
"MET (Homo sapiens, UniProt P08581, Y1235D)",cell-free assay,100
"MAP3K1 (Homo sapiens, UniProt Q13233)",cell-free assay,65
"STK36 (Homo sapiens, UniProt Q9NRP7)",cell-free assay,100
"PIK3CA (Homo sapiens, UniProt P42336, Q546K)",cell-free assay,85
"EPHA7 (Homo sapiens, UniProt Q15375)",cell-free assay,86

# Sample 4
# Target: DNA polymerase theta, ATPase domain (POLQ, Homo sapiens, UniProt O75417)
# Sequence of UniProt O75417 (whole entry, unmodified, looked up): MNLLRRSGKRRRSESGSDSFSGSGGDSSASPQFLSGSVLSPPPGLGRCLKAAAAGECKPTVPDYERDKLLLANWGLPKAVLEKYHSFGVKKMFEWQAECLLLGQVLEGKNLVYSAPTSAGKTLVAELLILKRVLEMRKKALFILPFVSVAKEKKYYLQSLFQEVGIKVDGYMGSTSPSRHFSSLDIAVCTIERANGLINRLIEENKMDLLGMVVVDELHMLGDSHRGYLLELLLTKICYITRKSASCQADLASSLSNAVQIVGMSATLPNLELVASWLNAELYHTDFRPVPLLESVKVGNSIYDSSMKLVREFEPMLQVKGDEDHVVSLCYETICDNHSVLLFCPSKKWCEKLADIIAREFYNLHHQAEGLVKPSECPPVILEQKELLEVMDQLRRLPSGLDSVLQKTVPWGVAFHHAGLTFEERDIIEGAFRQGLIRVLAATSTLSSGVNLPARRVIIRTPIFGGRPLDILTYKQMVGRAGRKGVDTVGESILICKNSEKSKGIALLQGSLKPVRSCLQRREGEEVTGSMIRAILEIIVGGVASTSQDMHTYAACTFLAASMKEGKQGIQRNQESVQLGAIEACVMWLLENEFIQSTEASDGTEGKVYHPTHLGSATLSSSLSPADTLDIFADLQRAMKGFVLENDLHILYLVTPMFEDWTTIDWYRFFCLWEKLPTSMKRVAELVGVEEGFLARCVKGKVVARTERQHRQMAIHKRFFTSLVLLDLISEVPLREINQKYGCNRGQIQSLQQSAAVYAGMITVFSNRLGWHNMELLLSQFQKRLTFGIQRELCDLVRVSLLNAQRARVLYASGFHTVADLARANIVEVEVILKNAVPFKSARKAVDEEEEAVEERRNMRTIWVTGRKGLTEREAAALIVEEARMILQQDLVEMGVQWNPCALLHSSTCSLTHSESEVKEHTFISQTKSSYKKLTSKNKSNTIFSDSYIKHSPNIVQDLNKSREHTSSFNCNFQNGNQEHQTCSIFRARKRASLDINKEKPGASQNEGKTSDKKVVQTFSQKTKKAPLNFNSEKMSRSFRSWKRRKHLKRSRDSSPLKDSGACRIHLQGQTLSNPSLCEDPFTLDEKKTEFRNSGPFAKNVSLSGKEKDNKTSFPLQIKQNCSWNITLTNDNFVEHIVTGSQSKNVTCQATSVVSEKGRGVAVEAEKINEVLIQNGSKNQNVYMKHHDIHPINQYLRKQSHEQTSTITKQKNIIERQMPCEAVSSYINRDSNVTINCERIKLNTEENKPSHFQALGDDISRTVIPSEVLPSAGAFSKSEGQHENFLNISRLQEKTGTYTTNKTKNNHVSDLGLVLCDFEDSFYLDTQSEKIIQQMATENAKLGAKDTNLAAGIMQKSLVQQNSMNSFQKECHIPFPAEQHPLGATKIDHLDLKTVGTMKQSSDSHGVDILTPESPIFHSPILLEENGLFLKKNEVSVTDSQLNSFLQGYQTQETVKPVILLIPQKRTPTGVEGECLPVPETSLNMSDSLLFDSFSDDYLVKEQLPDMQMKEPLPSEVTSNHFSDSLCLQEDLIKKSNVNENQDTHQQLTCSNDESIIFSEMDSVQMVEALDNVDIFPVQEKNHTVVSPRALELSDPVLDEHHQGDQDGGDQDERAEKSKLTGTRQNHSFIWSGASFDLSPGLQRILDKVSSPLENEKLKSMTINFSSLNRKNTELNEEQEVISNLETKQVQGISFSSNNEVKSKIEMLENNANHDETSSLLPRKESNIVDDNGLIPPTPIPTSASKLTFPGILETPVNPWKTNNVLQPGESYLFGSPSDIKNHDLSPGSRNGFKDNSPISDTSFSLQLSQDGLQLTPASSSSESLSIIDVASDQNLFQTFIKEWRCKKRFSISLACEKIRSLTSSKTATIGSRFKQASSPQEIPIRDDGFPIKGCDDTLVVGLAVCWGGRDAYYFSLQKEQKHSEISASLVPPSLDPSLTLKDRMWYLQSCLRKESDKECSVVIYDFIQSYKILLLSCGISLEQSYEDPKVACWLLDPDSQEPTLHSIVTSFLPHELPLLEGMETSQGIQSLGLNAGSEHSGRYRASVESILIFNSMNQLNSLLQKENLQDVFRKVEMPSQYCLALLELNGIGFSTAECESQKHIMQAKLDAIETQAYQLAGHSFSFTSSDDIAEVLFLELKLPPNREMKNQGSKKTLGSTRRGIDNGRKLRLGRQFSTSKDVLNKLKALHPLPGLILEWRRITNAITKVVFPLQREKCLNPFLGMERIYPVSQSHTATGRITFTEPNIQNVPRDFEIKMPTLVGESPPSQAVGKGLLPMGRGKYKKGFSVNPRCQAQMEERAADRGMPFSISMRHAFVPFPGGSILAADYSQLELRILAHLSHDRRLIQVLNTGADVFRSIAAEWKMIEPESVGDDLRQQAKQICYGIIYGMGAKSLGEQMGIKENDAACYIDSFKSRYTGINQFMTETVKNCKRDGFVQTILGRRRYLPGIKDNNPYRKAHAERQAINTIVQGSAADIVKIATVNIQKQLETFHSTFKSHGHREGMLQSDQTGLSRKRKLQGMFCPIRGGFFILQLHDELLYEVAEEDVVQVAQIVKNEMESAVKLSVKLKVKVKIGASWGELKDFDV
# Effect on: enzyme activity
# Mode: inhibitor
# Concentration: 77 µM
# Reference: untreated
SMILES,remaining activity
COC(=O)[C@H]1[C@H]2C[C@@H]3c4[nH]c5cc(OC)ccc5c4CCN3C[C@H]2C[C@@H](OC(=O)c2cc(OC)c(OC)c(OC)c2)[C@@H]1OC,93.8% and 84.5% and 99.6%
C[C@H](CCC(=O)O)[C@H]1CC[C@H]2[C@@H]3[C@H](O)C[C@@H]4C[C@H](O)CC[C@]4(C)[C@H]3CC[C@]12C,85% and 97.6%
CCN(CC)CCN(Cc1ccc(-c2ccc(C(F)(F)F)cc2)cc1)C(=O)Cn1c(SCc2ccc(F)cc2)nc(=O)c2c1CCC2,99.2%
CC(=O)c1c(C)c2cnc(Nc3ccc(N4CCNCC4)cn3)nc2n(C2CCCC2)c1=O,84.3%
CN(C)Cc1ccc(S(=O)(=O)n2ccc(/C=C/C(=O)NO)c2)cc1,102%
Cc1ccc(S(=O)(=O)c2ccc([N+](=O)[O-])o2)cc1,104%
CN[C@@H]1[C@H](O[C@H]2[C@H](O[C@H]3[C@H](O)[C@@H](O)[C@H](N=C(N)N)[C@@H](O)[C@@H]3N=C(N)N)O[C@@H](C)[C@]2(O)CO)O[C@@H](CO)[C@H](O)[C@H]1O,94.9%
C=CC1=C(C(=O)O)N2C(=O)[C@@H](NC(=O)/C(=N\OCC(=O)O)c3csc(N)n3)[C@H]2SC1,76.7%
Cc1cnc(Nc2ccc(OCCN3CCCC3)cc2)nc1Nc1cccc(S(=O)(=O)NC(C)(C)C)c1,97.9%
CCc1cc2c(cc1CC)CC(NC[C@H](O)c1ccc(O)c3[nH]c(=O)ccc13)C2,109%

# Some of these lines once more (sample 3):
target,assay,remaining binding [%]
"PLK1 (Homo sapiens, UniProt P53350)",cell-free assay,88
"PIK3CA (Homo sapiens, UniProt P42336, E542K)",cell-free assay,84
"Ribosomal protein S6 kinase alpha-4, N-terminal kinase domain (RPS6KA4, Homo sapiens, UniProt O75676)",cell-free assay,100
"MYLK4 (Homo sapiens, UniProt Q86YV6)",cell-free assay,90
"EGFR (Homo sapiens, UniProt P00533, del746-750)",cell-free assay,59
"FGFR1 (Homo sapiens, UniProt P11362)",cell-free assay,100
"HASPIN (Homo sapiens, UniProt Q8TF76)",cell-free assay,67
"ERN1 (Homo sapiens, UniProt O75460)",cell-free assay,78
"MAP2K1 (Homo sapiens, UniProt Q02750)",cell-free assay,90
